Measurements pooled from the literature.
Lines come from different studies, so protocols differ. Numbers after ± are the reported error.
ALB: Albumin (ALB, Homo sapiens, UniProt P02768)
ABCB1: ATP-dependent translocase ABCB1 (ABCB1, Homo sapiens, UniProt P08183)
UniProt P08183, sequence (whole entry, looked up): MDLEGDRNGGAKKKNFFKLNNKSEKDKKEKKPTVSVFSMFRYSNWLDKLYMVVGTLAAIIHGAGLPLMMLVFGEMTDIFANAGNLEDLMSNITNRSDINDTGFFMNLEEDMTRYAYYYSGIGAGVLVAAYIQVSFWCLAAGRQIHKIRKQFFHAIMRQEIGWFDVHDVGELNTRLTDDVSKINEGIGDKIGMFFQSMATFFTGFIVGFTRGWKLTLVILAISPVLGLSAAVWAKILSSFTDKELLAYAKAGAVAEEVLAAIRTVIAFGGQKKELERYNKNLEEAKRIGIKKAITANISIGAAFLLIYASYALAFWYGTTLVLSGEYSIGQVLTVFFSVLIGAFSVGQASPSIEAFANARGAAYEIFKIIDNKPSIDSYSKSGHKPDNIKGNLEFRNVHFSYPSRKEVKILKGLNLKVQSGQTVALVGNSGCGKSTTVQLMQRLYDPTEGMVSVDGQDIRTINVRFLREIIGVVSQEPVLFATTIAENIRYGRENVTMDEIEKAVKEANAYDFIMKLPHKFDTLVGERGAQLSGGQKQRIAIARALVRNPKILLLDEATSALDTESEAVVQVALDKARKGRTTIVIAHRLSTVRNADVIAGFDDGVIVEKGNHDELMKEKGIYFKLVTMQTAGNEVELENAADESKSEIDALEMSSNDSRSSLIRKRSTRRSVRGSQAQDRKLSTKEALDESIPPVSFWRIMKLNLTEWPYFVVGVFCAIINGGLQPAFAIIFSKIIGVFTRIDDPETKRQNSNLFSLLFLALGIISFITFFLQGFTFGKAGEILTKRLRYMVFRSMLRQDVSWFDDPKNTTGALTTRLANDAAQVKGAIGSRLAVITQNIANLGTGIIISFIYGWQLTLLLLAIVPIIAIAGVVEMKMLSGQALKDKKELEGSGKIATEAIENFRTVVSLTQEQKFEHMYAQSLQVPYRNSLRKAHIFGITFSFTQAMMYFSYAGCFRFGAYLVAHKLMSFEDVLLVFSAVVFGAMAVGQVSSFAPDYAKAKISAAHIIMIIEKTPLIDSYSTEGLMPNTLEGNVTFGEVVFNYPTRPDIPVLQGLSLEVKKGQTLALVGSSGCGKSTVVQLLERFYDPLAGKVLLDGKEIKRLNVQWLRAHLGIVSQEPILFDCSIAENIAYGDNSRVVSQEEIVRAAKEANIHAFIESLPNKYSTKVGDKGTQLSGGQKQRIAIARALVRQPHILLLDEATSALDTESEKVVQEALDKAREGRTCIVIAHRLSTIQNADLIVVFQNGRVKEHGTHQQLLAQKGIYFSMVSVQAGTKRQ
UniProt P20813, sequence (whole entry, looked up): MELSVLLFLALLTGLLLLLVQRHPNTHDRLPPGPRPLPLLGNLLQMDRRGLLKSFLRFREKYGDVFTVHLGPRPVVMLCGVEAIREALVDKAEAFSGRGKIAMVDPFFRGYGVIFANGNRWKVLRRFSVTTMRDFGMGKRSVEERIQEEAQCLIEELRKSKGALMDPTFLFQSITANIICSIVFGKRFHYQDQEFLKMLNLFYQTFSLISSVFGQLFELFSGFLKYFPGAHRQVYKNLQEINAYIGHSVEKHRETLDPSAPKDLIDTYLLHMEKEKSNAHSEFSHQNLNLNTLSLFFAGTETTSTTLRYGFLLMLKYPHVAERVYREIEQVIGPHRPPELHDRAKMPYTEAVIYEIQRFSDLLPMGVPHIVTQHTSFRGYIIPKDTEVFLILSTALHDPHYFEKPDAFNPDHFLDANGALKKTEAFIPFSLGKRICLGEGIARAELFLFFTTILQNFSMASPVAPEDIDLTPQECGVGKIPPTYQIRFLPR

| SMILES | target | assay | test system | conditions | scale | quantity | result |
| --- | --- | --- | --- | --- | --- | --- | --- |
| CN1CCN(c2ccc3[nH]c(-c4ccc5[nH]c(-c6ccc(OCCCCNC(=O)c7ccc8c(c7)C(=O)OC87c8ccc(N(C)C)cc8[Si](C)(C)c8cc(N(C)C)ccc87)cc6)nc5c4)nc3c2)CC1 | ALB | binding, second site, fluorescence titration | PBS |  |  | Kd | > 1000 µM |
| C/C(N)=N/C(=N\S(=O)(=O)c1ccc(C(F)(F)F)cc1)N1C[C@H](c2ccccc2)C(c2ccc(Cl)cc2)=N1 | ABCB1 |  | MDCK-MDR1 | 5 µM, 2 h, pH 7.4 |  | Papp A→B | 11 ×10⁻⁶ cm/s |
| C=C(NC(=O)c1csc(-c2nc3c(cc2O)-c2nc(cs2)C(=O)NC(C(C)O)C(=O)NC(=C(C)OC)c2nc(cs2)C(=O)NC2c4nc(cs4)C(=O)NC(COC(=O)c4c5c6c(cccc6n4O)COC(=O)C(OC4CC(C)(O)C(N(C)C)C(C)O4)C2OC5)c2nc-3cs2)n1)C(N)=O (centres unmarked) | CYP2B6 human | enzyme activity, inducer | cryopreserved primary human hepatocytes | 0.1 to 6 µM, 3 days | baseline: positive control | induction | < 40% |
| CN(C)c1ccc2c(c1)C(C)(C)c1cc(N(C)C)ccc1C21OC(=O)c2cc(C(=O)O)ccc21 | ALB | binding, fluorescence titration | PBS |  |  | Kd | 59 ± 10 µM |
| C=CC(=O)Nc1cc(Nc2nccc(-c3cn(C)c4ccccc34)n2)c(OCC(F)(F)F)nc1N(C)CCN(C)C | CYP1A2 human | inducer | hepatocytes lot HC3-31 | 10 µM | baseline: DMSO | relative enzyme activity | 9.29 |
| CNc1nc(N)nc2c1ncn2[C@@H]1O[C@H](CO)[C@@H](O)[C@@]1(C)F | ABCB1 | bidirectional transport | LLC-PK1, human MDR1, transfected with | 10 µM |  | efflux ratio | 1.73 ± 0.13 |
| CN1CCN(c2ccc3[nH]c(-c4ccc5[nH]c(-c6ccc(OCCCCNC(=O)c7ccc8c(c7)C(=O)OC87c8ccc(N(C)C)cc8C(C)(C)c8cc(N(C)C)ccc87)cc6)nc5c4)nc3c2)CC1 | ALB | binding, second site, fluorescence titration | PBS |  |  | Kd | > 1000 µM |
| CNc1nc(N)nc2c1ncn2[C@@H]1O[C@H](CO[P@](=O)(O)N[C@@H](C)C(=O)O)[C@@H](O)[C@@]1(C)F | ABCB1 | bidirectional transport | LLC-PK1, human MDR1, transfected with | 10 µM |  | Papp A to B | 5.62 ± 0.51 ×10⁻⁶ cm/s |
| CNC(=O)C1CCCN(C(=O)C2CC3CCC2N3C(=O)[C@@H]2C[C@@H](O)CN2C(=O)NCc2cccc(Cl)c2F)C1 (mixture of isomers) | Cytochrome P450 2B6 (CYP2B6, Homo sapiens, UniProt P20813) | enzyme activity, inhibitor | human, liver microsomes |  |  | IC50 | > 50 µM |
| O=C1CCC(N2Cc3c(ccc(C(=O)O)c3F)C2=O)C(=O)N1 (centres unmarked) | ALB | equilibrium dialysis | human serum albumin 50 mg/mL | 6 h, 37 °C |  | fraction unbound | 0.729 |
| C[C@@]1(F)[C@H](O)[C@@H](CO)O[C@H]1n1cnc2c(=O)[nH]c(N)nc21 | ABCB1 | bidirectional transport | LLC-PK1, human MDR1, transfected with | 10 µM, added: zosuquidar 1 µM |  | Papp A to B | 13.3 ± 0.8 ×10⁻⁶ cm/s |

For quick reference, copied from above:
| SMILES | target | assay | test system | conditions | scale | quantity | result |
| --- | --- | --- | --- | --- | --- | --- | --- |
| CNc1nc(N)nc2c1ncn2[C@@H]1O[C@H](CO[P@](=O)(O)N[C@@H](C)C(=O)O)[C@@H](O)[C@@]1(C)F | ABCB1 | bidirectional transport | LLC-PK1, human MDR1, transfected with | 10 µM |  | Papp A to B | 5.62 ± 0.51 ×10⁻⁶ cm/s |
